Measurements of several laboratories.
Parts stem from different laboratories: compare values within a part only.

Set 1
Target: Interferon regulatory factor 7, full length, phosphomimetic (IRF7, Homo sapiens, UniProt Q92985, residues 1-503, S101K/S471D/S472D/S475D/S476D/S477D/S483D/S484D/S487D)
Technique: protein-binding microarray
Form: double-stranded DNA, one strand shown
Matrix: in vitro
Tested at: 250 nM
Notes: 60-bp whole probe
With: salmon DNA 0.4 mg/ml
Reference: random background probes
Direction: higher = stronger binding
Shared flanks, not repeated: GCCTAGCAC … GTCTTGATTCGCTTGACGCTGCTG
Target sequence (chain): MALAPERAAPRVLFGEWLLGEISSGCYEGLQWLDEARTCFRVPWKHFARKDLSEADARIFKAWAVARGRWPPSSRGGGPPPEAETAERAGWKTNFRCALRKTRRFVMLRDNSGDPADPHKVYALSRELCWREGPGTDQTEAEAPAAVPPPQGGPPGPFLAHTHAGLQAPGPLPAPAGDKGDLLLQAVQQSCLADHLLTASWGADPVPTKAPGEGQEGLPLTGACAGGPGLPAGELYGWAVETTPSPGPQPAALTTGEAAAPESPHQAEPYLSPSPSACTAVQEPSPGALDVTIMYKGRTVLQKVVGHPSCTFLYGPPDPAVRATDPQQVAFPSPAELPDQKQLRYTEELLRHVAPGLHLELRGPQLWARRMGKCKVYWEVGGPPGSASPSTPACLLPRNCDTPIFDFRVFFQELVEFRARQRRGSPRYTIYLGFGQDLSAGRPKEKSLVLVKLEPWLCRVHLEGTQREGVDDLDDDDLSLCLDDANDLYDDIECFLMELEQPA
Oligonucleotide | log fluorescence [z-score]
TTAGAACTGGCGTATCGATTAGTGCTA | -0.609
TTAGATATCGGGGCTGGATTAGTGCTA | -0.355
GACCGTCTCCTACTGCTGACGTGCTAG | -0.0209
TTAGGACTGGAACTGGGTTAGTGCTAG | -0.17
TAAGGTATCCTACTGCTTTAGTGCTAG | -0.029
GACGGTTTCGGGACTGGGGAAGTGCTA | 4.48
GAAGGTATCGGTTTCGGGACGTGCTAG | 7.18
GACGGTTTCCACTATCGGGACGTGCTA | 1.98
GACGGTTTCTACTTTCGGGACGTGCTA | 5.38
TTAAGACTGGGGACTGGGTTAGTGCTA | -0.123
TTAGAACTGAGTCCCGATTAGTGCTAG | 0.3
GACGATATCGGGACCGGAGACGTGCTA | -0.265
GACGGTATCCGACTGCTGACGTGCTAG | -0.451
GGGTCTGTGCCTTTTTTTTTGTGCTAG | -0.373
TTAGAGTTCAGTATCGATTAGTGCTAG | 0.36
TTAGTTATCGGGTATCGATTAGTGCTA | 1.32
TGTGGACCTTGGGAGATTTCGTGCTAG | -1.07
GACGATGTCGGGTTTCGAGACGTGCTA | 1.84
GGCGATCTCAGACTGGAGACGTGCTAG | -0.98
TTAGGTTTCGGTACTGGGTTAGTGCTA | 6.21
GACGAACTGGGGACTGGACACGTGCTA | -0.462
TGGTATTTTTTTGTAATCGAGTGCTAG | 0.622

Set 2
Target: Prothrombin, mature alpha-thrombin (F2, Homo sapiens, UniProt P00734)
Technique: aptamer microarray, sandwich
Form: DNA with 2'F-ANA
Matrix: in vitro
Tested at: 200 nM
Notes: whole 15-mer aptamer, many near background
With: Cy3 exosite-II aptamer, 400 nM
Direction: higher = stronger binding
Oligonucleotide: GGTTGGTGTGGTTGG
Modification | mean fluorescence intensity [a.u.]
2'F-ANA at 3 7 9 11 13 15 | 956
2'F-ANA at 2 4 5 6 13 14 | 44.7
2'F-ANA at 1 2 5 6 7 8 9 11 12 15 | 91.6
2'F-ANA at 2 3 4 5 6 7 8 9 10 15 | 52.1
2'F-ANA at 1 6 7 9 10 14 15 | 46.1
2'F-ANA at 2 5 7 8 10 13 | 53.9
2'F-ANA at 3 11 13 14 | 648
2'F-ANA at 2 4 7 9 12 14 | 144
2'F-ANA at 1 2 5 10 12 13 14 15 | 45.1
2'F-ANA at 1 3 5 8 9 11 13 | 71.3
2'F-ANA at 6 8 11 13 15 | 378
2'F-ANA at 3 4 8 9 13 14 | 291
2'F-ANA at 5 7 10 11 12 15 | 52.5
2'F-ANA at 4 6 10 11 12 13 | 81.1
2'F-ANA at 1 2 3 5 7 8 9 11 13 14 | 90.4
2'F-ANA at 2 3 5 7 8 10 11 15 | 56.8

Set 3
Target: RING finger protein unkempt homolog, zinc fingers 1-6, GST-SBP tag (UNK, Homo sapiens, UniProt Q9C0B0, residues 30-357)
UniProt Q9C0B0, sequence (30-357, looked up): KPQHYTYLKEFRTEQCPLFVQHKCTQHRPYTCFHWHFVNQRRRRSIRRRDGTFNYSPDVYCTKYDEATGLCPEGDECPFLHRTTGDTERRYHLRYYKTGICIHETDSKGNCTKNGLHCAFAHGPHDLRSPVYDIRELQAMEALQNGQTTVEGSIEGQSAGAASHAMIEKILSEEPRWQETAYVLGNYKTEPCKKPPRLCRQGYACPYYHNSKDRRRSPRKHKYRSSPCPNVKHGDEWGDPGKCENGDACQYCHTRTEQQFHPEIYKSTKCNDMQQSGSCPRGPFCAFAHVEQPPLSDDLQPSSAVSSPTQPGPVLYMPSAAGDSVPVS
Technique: RNA Bind-n-Seq
Form: RNA
Matrix: in vitro
Tested at: not given
Notes: RNA with constant flanks, human and mouse sites, ends assumed
Reference: input RNA pool
Direction: higher = stronger binding
Oligonucleotide | bound/input enrichment
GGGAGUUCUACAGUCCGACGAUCAUGGUUGAACUCAACGGAAAUCAGCCCAUGGAGAUCAAAGUCCUGGGUCCUUAUACCUUUAGCAUCUGUGACACCUCCAACUUCUCCGACUACAUCCGUGGAGGCAUCGUCAGUCAGGUCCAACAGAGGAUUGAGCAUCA | 0.208 ratio
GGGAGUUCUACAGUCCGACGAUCGGCUUCAGGAACAUCAUAGCAGAUCCUGUCACCUUCAAGACCAAAUCGAGCUAUGUUGCCUUAGCUACCUUGCAAGCCUACACUUCUAUGCAUCUUUUUUUCCAGUUCAAGACAACAUCCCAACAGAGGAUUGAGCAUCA | 0.294 ratio
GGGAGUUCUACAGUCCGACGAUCUACAUCACCAAUGUUCUACAAAAUCCUGAUUUGGCUCUGAGAAUGGCUGUACGUAAUAACUUAGCCGGUGCUGAAGAACUCUUUGCCCGGAAAUUUAAUGCUCUUUUUGCCCAGGGAAAUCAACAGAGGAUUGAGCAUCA | 0.326 ratio
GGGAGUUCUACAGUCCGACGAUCCUGUGUUAAAAUAAUUGGAAAGGUUUCUGUGUUACAUGAGAGGGUUUUUUCGGUUUUGUUUUUUUAAACAAAGACUCGUAGAGAUGAAAAAAUUACUAAUGAAAUUGUGUACGUGUCUGUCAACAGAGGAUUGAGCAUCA | 0.354 ratio
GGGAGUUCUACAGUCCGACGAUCUAAAAUCUUGGCCAUUGUGGGAACUGCUGAAAGUAACAGUGAACACCCUCUAGGAACAGCCAUAACCAAAUAUUGCAAACAGGAGCUGGACACUGAAACCUUGGGUACCUGCAUAGAUUUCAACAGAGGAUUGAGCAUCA | 0.473 ratio
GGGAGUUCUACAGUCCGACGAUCGACUUGCUUCUGCAGGCUUGUCCAUUUGGUACUUUAUUAGAUGCCAACUUACAGAAUUCAUUAGAUAAUACCAAUUUUGCAUCUGUGACUCAGCCACAGAAACAGCCAGCUUGGAAAACUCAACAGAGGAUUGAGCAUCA | 1.75 ratio
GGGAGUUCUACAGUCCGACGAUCGCGGAGGAGAGUUCAGAUUGGUUUUAUGGUUUCCUCUCAUUUCUCUAUGAUAUAAUGACUCCUUUUGAAAUGCUAGAAGAAGAGGAAGAAGAAAGCGAAACUGCAGAUGGUGUUGAUGGUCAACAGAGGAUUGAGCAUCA | 0.576 ratio
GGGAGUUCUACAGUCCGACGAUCUUUUCUGAAUAAAAUAGUUGUUUCUAAUUAAAAAGUAGCCAAGCUAAGAUGCCUGGCUGGGCUUCUGAGGAAUUAAUACACUCGUGUGUGUGUGUGUGUGUGUGUGUGUGUGUGUGUGUGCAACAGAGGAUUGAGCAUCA | 12.8 ratio
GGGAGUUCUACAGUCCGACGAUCGAAUACAUAGGUGAAGAAGAAGCUACAUUAGUUGAUUUUGUUUGCUCUAAGGUUAUGGCACAUAGUUCACCACAGAGCAUUUUAGAUGAUGUUGCCAUGGUACUAGAUGAAGAAGCAGAACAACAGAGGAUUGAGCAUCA | 2.12 ratio
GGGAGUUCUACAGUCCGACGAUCGAAAAGAACAUGCAAAAAGUUGAAGAGGAAGGAGAGAUUGUUAUGGUGAAAGAACACCGAGAACUUGAUCGAACUGGAACAAGAAAGGGACACAUUGUCAUCAAGGGUACCUCAGAAAGGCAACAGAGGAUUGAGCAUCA | 0.253 ratio
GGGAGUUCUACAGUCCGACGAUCUCUGGAUCCAAAUGUUCAGAAAUGGGAUGUAACAGUAUUAGAACUCAGCUAUCACAAACGUCAUUUGGAUAGACCAGUGUUCUUACGGUUUUGGGAAACAUUGGACAGGUACAUGGUAAACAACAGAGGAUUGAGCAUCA | 0.271 ratio

Set 4
Target: RNA binding protein fox-1 homolog 2, RRM domain, GST-SBP tag (RBFOX2, Homo sapiens, UniProt O43251-10, residues 100-194)
Technique: RNA Bind-n-Seq
Form: RNA
Matrix: in vitro
Tested at: 365 nM
Notes: natural RNA segment, single round, ends assumed
Reference: no-protein control
Direction: higher = stronger binding
Target sequence (chain): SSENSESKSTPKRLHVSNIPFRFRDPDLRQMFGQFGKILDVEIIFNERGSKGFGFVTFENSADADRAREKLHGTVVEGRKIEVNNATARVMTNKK
Oligonucleotide | RBNS enrichment (R)
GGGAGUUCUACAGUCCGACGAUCAUCUGGAAUUGUUUCUAAAUAUAAGUCAUUUGUAGCAAGACUUUGGAAGCAUUCUUUCUUAAACAUAUUCCUUUAUGUUCAGUAGUUAAGAGAACCAGGGCCCACGGCGGUGGAAUUCUCGGGUGCCAA | 0.307
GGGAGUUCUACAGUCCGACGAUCUCUGUGUUUGAGAGGGGGUCUGCCAUUCCUGCUUGGGGACUGGUGGGGAAGAGGGCCAGGACAUCUUCUGAGCCAGGACGUCCCUGAGGCUCCACCUCCAAGCUCAGACAUGGAAUUCUCGGGUGCCAA | 1.11
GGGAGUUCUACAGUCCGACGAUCGAGCCAUUGGGCUUGGUUUGGUAUUGACAGGGUCAUCCUGAGGGGUUAGCAGUGGUAGAGAGCAAGGCAAGUGAUCUCUCCAGCUACCUGCCAGCAGUAGAGAGAGAGAGUGGAAUUCUCGGGUGCCAA | 1.82
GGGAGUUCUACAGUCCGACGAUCGCUAAUUUCAGCUAAGCCUUCAUCAUAAUUUGUUCCCUCAGUAAUAGGAGAAAUAUAAAUACAGUAAGUUUAGAUUAUUGAAUUGGUGCUUGAAAUUUAUUGGUUUUGUUUGGAAUUCUCGGGUGCCAA | 1.09
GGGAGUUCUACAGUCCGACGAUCCUUGUGUUUGUAAGUCUGCAUCUGCAUAAGUACUGACUCUGGAUGGAAAAGCUUGGAAGACCUUGGUCUCACCAUUUGUCUACAUUUGUGUGACCAUAAAAUGCUGGGAGUGGAAUUCUCGGGUGCCAA | 0.622
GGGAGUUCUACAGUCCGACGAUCGGGCCACGGCCUCCAUCAUGCUGAAUGACGCCUUCCUUCUGCCCCACCCCAGAAAAUCACUGUGAAAUUUCAUGAUUGGCUUAAAGUGAAGGAAAUAAAGGUAAAAUCACUGGAAUUCUCGGGUGCCAA | 0.437
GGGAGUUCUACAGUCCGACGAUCACUCGGCUGGGCUGCUUGGGGAGACUCUUCCGUGCGUUCUUCCUCUGGAUAGAACCACCACCUCCUGGGCGUCACUGACAAGCUCCAUCUUAACCUCCAAAGCCACAGAAUGGAAUUCUCGGGUGCCAA | 0.179
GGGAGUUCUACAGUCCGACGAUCGGUAUAUUUGCUUCUCGGGAAAGCAAAGAAGCUGCUUUAAGAAAAUUAAAAGGGGACUAAAAAUUUGUUUUGUAUAAAGAGGAUAGCCCUGCGCACGUAGGACUGAAUUCUGGAAUUCUCGGGUGCCAA | 2.4
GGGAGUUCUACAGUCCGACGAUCGAGAUCGUGCCACUGCACUCCAGCCUGGUCAACAGAGCAAGACUCCAUCUCGAAGAAAAAAAAAAAAAAUUCCCCACCCCUACCAAUUGUUUUACUUCCUCUUCCUGCUCUGGAAUUCUCGGGUGCCAA | 0.715

Repeated from above (set 1):
Oligonucleotide | log fluorescence [z-score]
TTAGAGTTCAGTATCGATTAGTGCTAG | 0.36
TTAGTTATCGGGTATCGATTAGTGCTA | 1.32
TGTGGACCTTGGGAGATTTCGTGCTAG | -1.07
GACGATGTCGGGTTTCGAGACGTGCTA | 1.84
GGCGATCTCAGACTGGAGACGTGCTAG | -0.98
TTAGGTTTCGGTACTGGGTTAGTGCTA | 6.21
